Experimental data pooled from the literature.
Numbered parts are unrelated; each lists some results of a single study. Positions count from the first letter of the parent shown.

Set 1 — target: CEP164, C-terminal peptide (human); technique: DHFR complementation, deep sequencing; sample: yeast; relative to: wild type; reading: higher = weaker binding
Notes: single substitutions, model-inferred values
Starting sequence: PDZK1, PDZ domain 2 (human); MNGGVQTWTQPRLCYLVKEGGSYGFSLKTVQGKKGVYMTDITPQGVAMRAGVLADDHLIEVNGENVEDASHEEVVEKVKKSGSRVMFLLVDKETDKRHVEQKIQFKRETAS; partner HNRVKVYRF
Variant | binding free energy change
V30S | 0.0437 kcal/mol
V30W | 0.115 kcal/mol
L89C | 0.241 kcal/mol
E72N | 0.714 kcal/mol
D40Q | 0.492 kcal/mol
A69W | -0.22 kcal/mol
Q44E | -0.109 kcal/mol
G4F | 0.0974 kcal/mol

Set 2 — technique: RNA Bind-n-Seq; form: RNA; sample: in vitro; tested at: 365 nM; relative to: no-protein control; reading: higher = stronger binding
Target: RNA binding protein fox-1 homolog 2, RRM domain, GST-SBP tag (RBFOX2, Homo sapiens, UniProt O43251-10, residues 100-194)
Notes: natural RNA segment, single round, ends assumed
All sequences stand within: GGGAGUUCUACAGUCCGACGAUC … UGGAAUUCUCGGGUGCCAA
Target sequence (chain): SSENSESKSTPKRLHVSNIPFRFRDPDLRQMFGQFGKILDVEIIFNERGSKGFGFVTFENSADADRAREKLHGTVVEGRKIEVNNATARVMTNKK
Oligonucleotide | RBNS enrichment (R)
GAUGUGUUUCUUUCAUUUGCCAGAAUUCCUGAUACCAAAAGCCUCUCUCUCUGUUGAGUAACCUCUCAAGGACCAGAGUGGAGUCCAGAUUGUUAGGCUCAGAUCAAGGG | 0.414
ACUGAAUAUUAUACAUUAUUGUAACAUGAACCUAAAAUUAAUUUAACAGGGCCCAAAUUCAUAGGAAUGUAACAGUCAUUGAAAGCCUAUUCUUUUCACCUCUCAUCACA | 0.362
CCCCGCUUUCCCGCCCCUGAACCCCGGCCCCGCGGGCGGCGGGCGGCGCUUCCUGCGCCCCGGGACUCAAUUAAACCCGCCCGGAGACCACGCCGGGCCCAGCGCGUCUG | 0.341
AAGUAUACCUUGUUUAUCAGUCAGUGUUGCUUAGGUUCUCACUUCUCCAGUCAUUGUAAUGUCUACAAGGAAUGCACAAUGGAGUGCUCAGAUCACUAAAAGGAGCAUCA | 0.284
AUACGAGUGGUGAGAGAGGGCAUCCCUGUCUUGUGCCAGUUUUCAAAGGGAAUGCUUCCAGUUUUUGCCCAUUCAGUAUGAUAUUGGCUGUGGGUUUGUCAUAGAUAGCU | 0.914
AUUCCCGUUUAUAUUUAUAUCUAUAUUGUUCUCAUGGUAAAUUGCCAAAAUAAAAGCAUUUUAUAUAUUGAGUUGGGGUGGGGGUGGGAUAGAUCUUCUGUGUCGUUGCA | 2.78
GUUAUGUAAUAUUCUUUGGCUACGCAUCUGUCCAGCAUCUUAUUAACCAUAAUACUGUGAUCAUUAUUUGGAAAUAUGUCCUAUGGAAAGAAUAAAAGCAUGUACUUCAC | 7.15
CACAGGUCCCAGCAACUGAUCCUCAGUGGAUGGGUCUGCAGCCAAAGCCUUAAUGGGCUCUCUUUUGAAGGGGAAAGAAAGAAUUUCAAGCUUAUGAUAUCCAACAUUAU | 0.278

Set 3 — technique: RNA Bind-n-Seq; form: RNA; sample: in vitro; tested at: 200 nM; notes: whole 134-nt RNA, ends assumed; together with: 150 mM KCl; relative to: input library; reading: higher = stronger binding
Target: Fragile X messenger ribonucleoprotein 1, C-terminal low-complexity region (Fmr1, Mus musculus, UniProt P35922)
All sequences stand within: GGGAGUUCUACAGUCCGACGAUC … UGGAAUUCUCGGGUGUCAAGG
Oligonucleotide | log2 enrichment
UCCUGUGCUACACAUCGUAUGUACCGAAUCGGGGUUUGGGGUUUGGGGUUUUUUUGGGGAAAGUAUUAUGUUACGCCGUUCGGAUCUGCA | 0.969
CACAGACAACACGCACCCACACUGACACAGAGGGAAGGGGUUGGGAUGGGGACAGGGUGCACAGCAGGGCGGGGUAGGACCCCAGCCCCU | 1.38
UACUCUUUGAUUUAUCAAAUGUGUUCAGUUGGAGAAUCGUCCUCAGGAAAGGCUUCAAGGAGCCUUGCACAGCAUAUUCCUGGCCCUGGU | -1
AGUCCUGUGCUACACAUCGUAUGUACCGAAUCGGGGAAAAAGGGGAAAGGGGUGGGGAAAGUAUUAUGUUACGCCGUUCGGAUCUGCACU | 0.249
CACAGACAACACGCACCCACACAGACACAGAGGGAAGGGGUUGGGAUGGGGACAGGGUGAACAGCAGGGCGGGGUAGGACCCCAGCCCCU | 1.22
CAAGUCCUGUGCUACACAUCGUAUGUACCGAAUCGGGUUUGGGUUUUUGGGUGGGAAAGUAUUAUGUUACGCCGUUCGGAUCUGCACUUC | 1.17
UGGGAGGUGGAUUGUGUUUAUUUUUUUAGCUCAUUUCCAGGGGUGGGAAUUUUUUUUUAAUAUGUGUCAUGAAUAAAGUUGUUUUUGAAA | 0.0101
UGGUUUUGGUGCCUGGCAUCGAAGAUGGUGUGUUCUUUCUGGAAACUGUAUAUCUUAUUGGACUUAUCCAGAUGAUGAGAAACGCAAGGU | -0.55

Other studies, line by line — starting sequence: viral docking peptide; CKVKRKLFGSENI
Variant | target | assay | test system | setting | scale | quantity | result
CKVKRKLFGSEAI [N12A] | CCNE2, cyclin fold, Cln2 fusion (human) | yeast growth competition, sequencing | yeast | strong parent motif | relative to: not given, higher = stronger binding | normalised enrichment score | 3.12

For quick reference, copied from above (set 1):
Variant | binding free energy change
Q44E | -0.109 kcal/mol
L89C | 0.241 kcal/mol
D40Q | 0.492 kcal/mol
V30W | 0.115 kcal/mol
